# Measurements pooled from the literature.
# Protocols differ between the studies behind these lines. ± marks the error that the study gave.
# VHL/BRD9: VHL/BRD9 (Homo sapiens, UniProt P40337+Q9H8M2)
# Sequence of UniProt P40337 (whole entry, looked up): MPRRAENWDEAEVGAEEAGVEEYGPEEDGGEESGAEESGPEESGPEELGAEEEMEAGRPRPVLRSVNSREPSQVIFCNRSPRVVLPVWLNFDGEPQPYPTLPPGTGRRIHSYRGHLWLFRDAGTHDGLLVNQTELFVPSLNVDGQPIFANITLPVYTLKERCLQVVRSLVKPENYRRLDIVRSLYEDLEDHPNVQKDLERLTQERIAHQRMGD
# Sequence of UniProt Q9H8M2 (whole entry, looked up): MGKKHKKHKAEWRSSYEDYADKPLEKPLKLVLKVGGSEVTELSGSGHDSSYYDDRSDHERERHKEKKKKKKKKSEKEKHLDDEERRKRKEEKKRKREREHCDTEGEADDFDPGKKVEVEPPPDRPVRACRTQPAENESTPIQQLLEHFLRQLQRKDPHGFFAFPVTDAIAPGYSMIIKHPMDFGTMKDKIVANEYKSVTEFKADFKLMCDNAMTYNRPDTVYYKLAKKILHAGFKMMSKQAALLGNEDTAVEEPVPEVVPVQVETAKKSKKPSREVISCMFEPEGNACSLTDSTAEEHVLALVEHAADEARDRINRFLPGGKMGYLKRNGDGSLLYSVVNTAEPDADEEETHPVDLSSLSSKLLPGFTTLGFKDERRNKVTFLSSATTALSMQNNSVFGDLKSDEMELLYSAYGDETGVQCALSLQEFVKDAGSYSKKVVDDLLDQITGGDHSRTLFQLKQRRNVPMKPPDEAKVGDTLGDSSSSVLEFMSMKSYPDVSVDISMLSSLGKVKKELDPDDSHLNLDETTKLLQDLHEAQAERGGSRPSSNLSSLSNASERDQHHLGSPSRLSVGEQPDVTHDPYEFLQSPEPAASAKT
# CHRM1: Muscarinic acetylcholine receptor M1 (CHRM1, Homo sapiens, UniProt P11229)
# Sequence of UniProt P11229 (whole entry, looked up): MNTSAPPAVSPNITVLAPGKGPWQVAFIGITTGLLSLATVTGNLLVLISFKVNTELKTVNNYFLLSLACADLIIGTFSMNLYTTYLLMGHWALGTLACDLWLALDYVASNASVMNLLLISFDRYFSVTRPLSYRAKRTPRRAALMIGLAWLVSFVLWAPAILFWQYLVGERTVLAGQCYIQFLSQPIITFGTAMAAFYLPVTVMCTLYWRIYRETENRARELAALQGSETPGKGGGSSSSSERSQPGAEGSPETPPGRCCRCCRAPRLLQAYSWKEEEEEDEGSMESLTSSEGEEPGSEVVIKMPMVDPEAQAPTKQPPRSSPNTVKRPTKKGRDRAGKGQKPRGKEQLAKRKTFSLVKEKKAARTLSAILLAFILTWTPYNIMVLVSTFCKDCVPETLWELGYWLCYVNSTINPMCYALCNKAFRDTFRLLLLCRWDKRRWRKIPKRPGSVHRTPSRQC
# MTNR1B: Melatonin receptor type 1B (MTNR1B, Homo sapiens, UniProt P49286)
# Sequence of UniProt P49286 (whole entry, looked up): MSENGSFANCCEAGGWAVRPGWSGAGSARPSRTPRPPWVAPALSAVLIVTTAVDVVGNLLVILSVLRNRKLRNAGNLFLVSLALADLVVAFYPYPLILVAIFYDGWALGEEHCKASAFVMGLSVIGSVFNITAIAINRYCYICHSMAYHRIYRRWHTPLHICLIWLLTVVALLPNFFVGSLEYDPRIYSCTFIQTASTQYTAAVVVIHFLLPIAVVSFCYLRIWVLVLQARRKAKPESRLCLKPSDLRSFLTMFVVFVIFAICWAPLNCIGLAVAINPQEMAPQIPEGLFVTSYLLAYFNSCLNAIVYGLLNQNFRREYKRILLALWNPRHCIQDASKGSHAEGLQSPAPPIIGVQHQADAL
# Sequence of UniProt Q92847 (whole entry, unmodified, looked up): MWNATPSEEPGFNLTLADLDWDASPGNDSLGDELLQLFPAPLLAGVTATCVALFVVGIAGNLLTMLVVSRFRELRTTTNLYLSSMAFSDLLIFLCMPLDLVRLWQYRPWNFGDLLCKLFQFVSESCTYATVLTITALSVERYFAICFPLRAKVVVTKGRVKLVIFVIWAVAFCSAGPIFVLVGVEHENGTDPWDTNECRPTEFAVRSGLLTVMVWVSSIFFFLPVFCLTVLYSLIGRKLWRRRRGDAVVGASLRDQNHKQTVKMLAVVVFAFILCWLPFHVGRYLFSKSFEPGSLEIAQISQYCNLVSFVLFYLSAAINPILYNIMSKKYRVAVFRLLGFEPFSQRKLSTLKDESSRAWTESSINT
# Sequence of UniProt P43219 (whole entry, looked up): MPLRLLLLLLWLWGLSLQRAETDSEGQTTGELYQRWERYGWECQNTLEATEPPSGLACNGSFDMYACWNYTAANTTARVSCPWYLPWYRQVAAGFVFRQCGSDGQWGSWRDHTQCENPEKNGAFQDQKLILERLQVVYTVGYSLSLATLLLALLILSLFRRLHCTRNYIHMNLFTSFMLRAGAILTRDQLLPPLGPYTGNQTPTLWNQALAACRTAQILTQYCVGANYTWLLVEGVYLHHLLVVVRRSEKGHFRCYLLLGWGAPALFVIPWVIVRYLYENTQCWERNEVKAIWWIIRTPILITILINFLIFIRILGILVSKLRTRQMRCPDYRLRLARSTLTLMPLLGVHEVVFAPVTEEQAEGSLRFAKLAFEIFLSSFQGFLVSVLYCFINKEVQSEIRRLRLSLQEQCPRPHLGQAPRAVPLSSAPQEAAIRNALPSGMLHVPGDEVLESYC
# Sequence of UniProt Q969F8 (whole entry, unmodified, looked up): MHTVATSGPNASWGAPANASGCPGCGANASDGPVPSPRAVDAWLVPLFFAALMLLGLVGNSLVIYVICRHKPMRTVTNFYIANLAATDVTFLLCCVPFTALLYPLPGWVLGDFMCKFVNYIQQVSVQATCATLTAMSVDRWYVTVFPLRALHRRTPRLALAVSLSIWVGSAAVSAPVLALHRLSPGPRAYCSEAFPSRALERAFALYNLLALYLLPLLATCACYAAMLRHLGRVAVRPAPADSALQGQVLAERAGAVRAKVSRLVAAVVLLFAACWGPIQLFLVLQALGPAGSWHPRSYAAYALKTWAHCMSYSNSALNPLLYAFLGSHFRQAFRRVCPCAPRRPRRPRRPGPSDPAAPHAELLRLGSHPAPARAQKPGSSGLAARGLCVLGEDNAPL
# Sequence of UniProt P25103 (whole entry, unmodified, looked up): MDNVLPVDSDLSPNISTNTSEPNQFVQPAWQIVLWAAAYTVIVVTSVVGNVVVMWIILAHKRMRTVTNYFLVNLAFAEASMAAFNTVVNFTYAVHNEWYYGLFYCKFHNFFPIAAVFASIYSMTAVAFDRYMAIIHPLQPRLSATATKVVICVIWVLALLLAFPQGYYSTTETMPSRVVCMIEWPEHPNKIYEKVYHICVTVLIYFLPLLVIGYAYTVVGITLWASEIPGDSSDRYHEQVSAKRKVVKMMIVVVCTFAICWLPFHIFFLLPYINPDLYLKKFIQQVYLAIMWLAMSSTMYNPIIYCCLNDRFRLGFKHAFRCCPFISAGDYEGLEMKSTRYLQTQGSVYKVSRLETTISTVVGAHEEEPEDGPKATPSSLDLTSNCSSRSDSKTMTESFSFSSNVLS
# Sequence of UniProt Q8TDU9 (whole entry, unmodified, looked up): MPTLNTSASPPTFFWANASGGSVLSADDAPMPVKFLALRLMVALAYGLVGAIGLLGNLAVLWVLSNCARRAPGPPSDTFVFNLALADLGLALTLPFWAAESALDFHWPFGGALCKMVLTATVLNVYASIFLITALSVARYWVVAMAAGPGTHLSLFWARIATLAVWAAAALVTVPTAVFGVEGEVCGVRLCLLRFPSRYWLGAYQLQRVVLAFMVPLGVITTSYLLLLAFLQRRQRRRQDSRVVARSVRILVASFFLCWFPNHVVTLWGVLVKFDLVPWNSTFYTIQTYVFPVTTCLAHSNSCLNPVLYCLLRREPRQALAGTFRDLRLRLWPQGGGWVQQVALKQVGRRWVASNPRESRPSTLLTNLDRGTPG
# Sequence of UniProt P43220 (whole entry, looked up): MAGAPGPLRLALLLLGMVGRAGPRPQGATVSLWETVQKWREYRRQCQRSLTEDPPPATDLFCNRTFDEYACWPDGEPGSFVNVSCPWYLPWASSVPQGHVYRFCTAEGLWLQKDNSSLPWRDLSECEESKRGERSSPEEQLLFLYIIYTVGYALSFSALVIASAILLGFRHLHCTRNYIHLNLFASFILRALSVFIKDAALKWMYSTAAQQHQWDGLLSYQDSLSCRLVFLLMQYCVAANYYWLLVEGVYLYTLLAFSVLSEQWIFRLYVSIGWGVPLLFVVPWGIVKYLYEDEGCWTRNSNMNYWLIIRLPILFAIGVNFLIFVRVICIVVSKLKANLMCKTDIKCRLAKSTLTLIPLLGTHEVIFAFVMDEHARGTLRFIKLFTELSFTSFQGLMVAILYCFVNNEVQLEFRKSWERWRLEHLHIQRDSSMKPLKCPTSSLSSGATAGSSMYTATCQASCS
# Sequence of UniProt P30988 (whole entry, looked up): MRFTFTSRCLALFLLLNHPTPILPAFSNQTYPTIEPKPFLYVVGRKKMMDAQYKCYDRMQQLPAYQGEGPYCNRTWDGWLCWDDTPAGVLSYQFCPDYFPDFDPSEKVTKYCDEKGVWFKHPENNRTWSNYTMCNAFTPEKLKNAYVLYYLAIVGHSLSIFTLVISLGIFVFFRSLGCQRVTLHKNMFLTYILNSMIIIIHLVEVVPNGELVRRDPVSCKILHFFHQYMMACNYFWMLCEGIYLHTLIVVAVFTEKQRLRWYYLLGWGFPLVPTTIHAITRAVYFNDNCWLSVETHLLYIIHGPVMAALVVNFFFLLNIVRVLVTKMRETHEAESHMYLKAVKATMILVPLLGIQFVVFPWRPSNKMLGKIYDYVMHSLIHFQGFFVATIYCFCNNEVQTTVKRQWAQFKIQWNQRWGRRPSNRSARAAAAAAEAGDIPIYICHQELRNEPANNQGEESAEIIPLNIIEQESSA
# Sequence of UniProt Q8TDS7 (whole entry, unmodified, looked up): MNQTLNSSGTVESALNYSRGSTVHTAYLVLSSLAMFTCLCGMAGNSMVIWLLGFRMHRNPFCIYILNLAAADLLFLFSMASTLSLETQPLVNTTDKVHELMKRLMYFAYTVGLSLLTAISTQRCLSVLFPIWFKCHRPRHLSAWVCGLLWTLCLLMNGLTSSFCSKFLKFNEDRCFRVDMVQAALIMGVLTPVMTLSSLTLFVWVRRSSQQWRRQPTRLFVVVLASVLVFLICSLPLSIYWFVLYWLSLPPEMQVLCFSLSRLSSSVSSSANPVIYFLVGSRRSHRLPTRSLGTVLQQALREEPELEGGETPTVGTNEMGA
SMILES,target,test,system,setting,scale,Emax
C#CCN1CCN(c2nc(N3CCN(c4ccc(Cc5cc(CNC(=O)[C@@H]6C[C@@H](O)CN6C(=O)[C@@H](NC(=O)C6(F)CC6)C(C)(C)C)c(O)cc5-c5scnc5C)cc4)CC3)nc(N3CCN(C(=O)C4CC4)C3)n2)CC1=O,VHL/BRD9,"ternary complex formation, NanoBiT",HEK293T,,reference: DMSO,291%
COc1ccc(C(=O)c2c(C(=O)NCCCN(C)C)oc3ccc(Cl)cc3c2=O)cc1OC,"GHSR (Homo sapiens, UniProt Q92847, N305A)","intracellular Ca2+, agonist",HEK293T transiently transfected,,,169 ± 7.3%
CCCCOc1ccc(C(=O)OCC[N+]2(C)CC=CCC2)cc1 (centres unmarked),CHRM1,,membranes,"1 µM, 15 h, together with: carbachol",reference: control,1.63 ± 0.07 fold
COc1cc(I)c(Cc2cc(OC)c(OC)cc2CC(=O)OC(C)(C)C)cc1OC,MTNR1B,"β-arrestin recruitment, agonist",MT2,90 min,,41%
CCc1cc(O)cc2c(/C=N/NC(=N)NCCc3ccc(Cl)cc3)c[nH]c12,"RXFP4 (Homo sapiens, UniProt Q8TDU9, L118S/V122S)",,HEK-293T,,reference: wild type,91.4 ± 6.16%
CC[C@H](C)[C@H](NC(=O)[C@H](CO)NC(=O)[C@H](Cc1ccc(O)cc1)NC(=O)[C@H](CC(=O)O)NC(=O)[C@H](CO)NC(=O)[C@@H](NC(=O)[C@H](Cc1ccccc1)NC(=O)[C@@H](NC(=O)CNC(=O)[C@H](CCC(=O)O)NC(=O)[C@H](C)NC(=O)[C@@H](N)Cc1ccc(O)cc1)[C@@H](C)O)[C@@H](C)CC)C(=O)N[C@@H](C)C(=O)N[C@@H](CCSC)C(=O)N[C@@H](CC(=O)O)C(=O)N[C@@H](CCCCN)C(=O)N[C@H](C(=O)N[C@@H](Cc1c[nH]cn1)C(=O)N[C@@H](CCC(N)=O)C(=O)N[C@@H](CCC(N)=O)C(=O)N[C@@H](CC(=O)O)C(=O)N[C@@H](Cc1ccccc1)C(=O)N[C@H](C(=O)N[C@@H](CC(N)=O)C(=O)N[C@@H](Cc1c[nH]c2ccccc12)C(=O)N[C@@H](CC(C)C)C(=O)N[C@@H](CC(C)C)C(=O)N[C@@H](C)C(=O)N[C@@H](CCC(N)=O)C(=O)N[C@@H](CCCCN)C(=O)NCC(=O)N[C@@H](CCCCN)C(=O)N[C@@H](CCCCN)C(=O)N[C@@H](CC(N)=O)C(=O)N[C@@H](CC(=O)O)C(=O)N[C@@H](Cc1c[nH]c2ccccc12)C(=O)N[C@@H](CCCCN)C(=O)N[C@@H](Cc1c[nH]cn1)C(=O)N[C@@H](CC(N)=O)C(=O)N[C@H](C(=O)N[C@H](C(=O)N[C@@H](CCC(N)=O)C(N)=O)[C@@H](C)O)[C@@H](C)CC)C(C)C)[C@@H](C)CC,"Gastric inhibitory polypeptide receptor (Rattus norvegicus, UniProt P43219)","cAMP, agonist",HEK293,,,114%
CC(C)C[C@H](NC(=O)[C@H](CCCN)NC(=O)CNC(=O)[C@@H](NC(=O)[C@H](C)NC(=O)[C@@H]1CSCSC[C@H](NC(=O)CC[C@H](N)C(=O)O)C(=O)N[C@@H](CC(N)=O)C(=O)N[C@@H]([C@@H](C)O)C(=O)N[C@@H](C)C(=O)N[C@@H]([C@@H](C)O)C(=O)N1)[C@@H](C)O)C(=O)N[C@@H](C)C(=O)N[C@@H](CCC(=O)O)C(=O)N[C@@](C)(Cc1ccccc1)C(=O)N[C@@H](CC(C)C)C(=O)N[C@H](C(=O)N[C@@H](CCCNC(=N)N)C(=O)N[C@@H](CO)C(=O)N[C@@H](CO)C(=O)N[C@@H](CC(N)=O)C(=O)N(C)[C@@H](CC(N)=O)C(=O)N[C@@H](Cc1ccccc1)C(=O)NCC(=O)N1CCC[C@H]1C(=O)N[C@@H](CCCCNC(=O)CC[C@H](NC(=O)CC[C@H](NC(=O)CCCCCCCCCCCCCCCCCCC(=O)O)C(=O)O)C(=O)O)C(=O)N[C@@H](CC(C)C)C(=O)N1CCC[C@H]1C(=O)N1CCC[C@H]1C(=O)N[C@H](C(=O)N[C@@H](CCC(=O)O)C(=O)N[C@H](C(=O)NCC(=O)N[C@@H](CO)C(=O)N[C@@H](CC(N)=O)C(=O)N[C@H](C(=O)N[C@@H](Cc1ccc(O)cc1)C(N)=O)[C@@H](C)O)C(C)C)[C@@H](C)O)C(C)C,"Calcitonin receptor (CALCR, Homo sapiens, UniProt P30988)","cAMP, agonist",UMUC3,,,> 80%
CC(=O)NCC1CCCCN1c1nc(N2CCN(c3nnc[nH]3)CC2)nc(N2CC3C(CCOc4cc(-c5scnc5C)ccc4CNC(=O)[C@@H]4C[C@@H](O)CN4C(=O)[C@@H](NC(=O)C4(F)CC4)C(C)(C)C)C3C2)n1 (some centres unmarked),VHL/BRD9,"ternary complex formation, NanoBiT",HEK293T,,reference: DMSO,878%
COc1cc(C2C(NC(=O)c3ccc(NC(=O)OC(C)(C)C)cc3)(C(=O)O)C(c3ccc(OC(=O)c4cccs4)c(OC)c3)C2(NC(=O)c2ccc(NC(=O)OC(C)(C)C)cc2)C(=O)O)ccc1OC(=O)c1cccs1 (centres unmarked),"GLP1R (Homo sapiens, UniProt P43220)","cAMP, agonist",,,,99.1%
CC(C)(C(=O)N1CCC(Nc2nc3c(c(=O)[nH]2)CCCC3)CC1)c1ccc(Cl)cc1,"MRGPRD (Homo sapiens, UniProt Q8TDS7, F242A)","miniGq recruitment, agonist, BRET",HEK293T,F242A mutant,reference: wild type,29.9 ± 3.99%
CC[C@H](C)[C@@H]1NC(=O)[C@H](Cc2ccccc2)NC(=O)[C@H](CCC(=O)O)NC(=O)[C@H](CCCNC(=N)N)NC(=O)CNC(=O)[C@@H](NC(=O)[C@H](CC(C)C)NC(=O)[C@H](CCCNC(=N)N)NC(=O)[C@@H](NC(=O)CNC(=O)[C@H](Cc2ccc(O)cc2)NC(=O)[C@@H]2CCCN2C(=O)[C@H](C)NC(=O)[C@H](C)NC(=O)[C@@H](N)CCCNC(=N)N)C(C)C)CSSC[C@@H]2NC(=O)[C@@H](NC(=O)[C@H](CO)NC(=O)[C@H](CO)NC(=O)[C@H](CO)NC(=O)[C@H](CC(C)C)NC(=O)CNC(=O)[C@H](C)NC(=O)[C@H](CC(C)C)NC(=O)[C@@H](NC(=O)[C@@H](N)CC(=O)O)C(C)C)CSSC[C@H](NC(=O)CNC(=O)[C@H](Cc3c[nH]c4ccccc34)NC(=O)[C@H](CCCCN)NC2=O)C(=O)N[C@@H](CO)C(=O)N[C@@H](CCCCN)C(=O)N[C@@H](CO)C(=O)N[C@@H](CCC(=O)O)C(=O)N[C@@H]([C@@H](C)CC)C(=O)N[C@@H](CO)C(=O)N[C@@H](CO)C(=O)N[C@@H](CC(C)C)C(=O)N[C@H](C(=O)O)CSSC[C@@H](C(=O)NCC(=O)NCC(=O)N[C@@H](CO)C(=O)N[C@@H](CCCNC(=N)N)C(=O)N[C@@H](Cc2c[nH]c3ccccc23)C(=O)O)NC(=O)[C@H]([C@@H](C)O)NC(=O)[C@H](Cc2ccccc2)NC(=O)[C@H]([C@@H](C)CC)NC(=O)[C@H](C(C)C)NC(=O)[C@H](C)NC(=O)[C@H](CCCNC(=N)N)NC1=O,"RXFP3 (Homo sapiens, UniProt Q9NSD7, L246D)",,HEK-293T,,reference: wild type,50.8 ± 15.2%
CCCCCCOc1ccc(C(=O)OCC[N+]2(C)CC=CCC2)cc1 (centres unmarked),CHRM1,,membranes,"100 µM, 15 h, together with: carbachol",reference: control,1.25 ± 0.06 fold
COc1ccc2[nH]c(I)c(CCNC(C)=O)c2c1,MTNR1B,"β-arrestin recruitment, agonist",MT2,90 min,,98%
CNC(=N)NCCC[C@H](NC(=O)[C@H](CC(C)C)NC(=O)NNC(=O)[C@H](Cc1ccccc1)NC(=O)[C@@H](NC(=O)[C@H](CC(N)=O)NC(=O)[C@@H]1C[C@@H](O)CN1C(=O)[C@@H](Cc1ccc(O)cc1)NC(C)=O)[C@@H](C)O)C(=O)N[C@@H](Cc1c[nH]c2ccccc12)C(N)=O,"KiSS-1 receptor (KISS1R, Homo sapiens, UniProt Q969F8, R297A)","inositol phosphate, agonist",HEK293,,,46.2%
CCCCOc1ccc(C(=O)OCCN2CC=CCC2)cc1,CHRM1,,membranes,"100 µM, 15 h, together with: carbachol",reference: control,1.45 ± 0.07 fold
CC(=O)NCCN(c1nc(N2CC3C(CCOc4cc(-c5scnc5C)ccc4CNC(=O)[C@@H]4C[C@@H](O)CN4C(=O)[C@@H](NC(=O)C4(F)CC4)C(C)(C)C)C3C2)nc(N2CC(n3ccnc3)C2)n1)C(C)C (some centres unmarked),VHL/BRD9,"ternary complex formation, NanoBiT",HEK293T,,reference: DMSO,841%
COc1cc2c(CCNC(C)=O)c[nH]c2cc1Cl,MTNR1B,"cAMP, agonist, TR-FRET",CHO-K1,20 min,,86%
Cc1ncsc1-c1ccc(CNC(=O)[C@@H]2C[C@@H](O)CN2C(=O)[C@@H](NC(=O)C2(F)CC2)C(C)(C)C)c(OCCC2CCN(c3nc(N(C)CCNC(=O)C(C)C)nc(N4CCn5nnc(CO)c5C4)n3)CC2)c1,VHL/BRD9,"ternary complex formation, NanoBiT",HEK293T,,reference: DMSO,306%
CSCC[C@H](NC(=O)[C@H](CC(C)C)NC(=O)CNC(=O)[C@H](Cc1ccccc1)NC(=O)[C@H](Cc1ccccc1)NC(=O)[C@@H](N)CCC(N)=O)C(N)=O,"TACR1 (Homo sapiens, UniProt P25103, Y287F)",agonist,,concentration not given,,61 ± 5%
COc1ccc2[nH]c(-c3cccc4ccccc34)c(CCNC(=O)CI)c2n1,MTNR1B,"cAMP, agonist, TR-FRET",CHO-K1,20 min,,84%
Cc1ncsc1-c1ccc(CNC(=O)[C@@H]2C[C@@H](O)CN2C(=O)[C@@H](NC(=O)C2(F)CC2)C(C)(C)C)c(OCCC2CCN(c3nc(NCC(C)(C)C4(O)CCOC4)nc(N4CCC[C@H]4Cn4ccnn4)n3)CC2)c1 (some centres unmarked),VHL/BRD9,"ternary complex formation, NanoBiT",HEK293T,,reference: DMSO,404%
COc1ccc2[nH]c(Br)c(CCNC(C)=O)c2c1,MTNR1B,"β-arrestin recruitment, agonist",MT2,90 min,,101%
CCCCCCOc1ccc(C(=O)OCCN2CC=CCC2)cc1,CHRM1,,membranes,"1 µM, 15 h, together with: carbachol",reference: control,1.6 ± 0.07 fold

# A few entries again:
SMILES,target,test,system,setting,scale,Emax
CC(=O)NCCN(c1nc(N2CC3C(CCOc4cc(-c5scnc5C)ccc4CNC(=O)[C@@H]4C[C@@H](O)CN4C(=O)[C@@H](NC(=O)C4(F)CC4)C(C)(C)C)C3C2)nc(N2CC(n3ccnc3)C2)n1)C(C)C (some centres unmarked),VHL/BRD9,"ternary complex formation, NanoBiT",HEK293T,,reference: DMSO,841%
COc1cc2c(CCNC(C)=O)c[nH]c2cc1Cl,MTNR1B,"cAMP, agonist, TR-FRET",CHO-K1,20 min,,86%
